Experimental data collected from several papers.
Every numbered part comes from another study and shows a few of its results, in no order. Substitutions count along the parent as printed.

Block 1
Target: Interferon regulatory factor 7, full length, phosphomimetic (IRF7, Homo sapiens, UniProt Q92985, residues 1-503, S101K/S471D/S472D/S475D/S476D/S477D/S483D/S484D/S487D)
Technique: protein-binding microarray
Form: double-stranded DNA, one strand shown
Medium: in vitro
Tested at: 250 nM
Notes: 60-bp whole probe
Together with: salmon DNA 0.4 mg/ml
Relative to: random background probes
Direction: higher = stronger binding
Shared flanks, not repeated: GCCTAGCAC … GTCTTGATTCGCTTGACGCTGCTG
Target sequence (chain): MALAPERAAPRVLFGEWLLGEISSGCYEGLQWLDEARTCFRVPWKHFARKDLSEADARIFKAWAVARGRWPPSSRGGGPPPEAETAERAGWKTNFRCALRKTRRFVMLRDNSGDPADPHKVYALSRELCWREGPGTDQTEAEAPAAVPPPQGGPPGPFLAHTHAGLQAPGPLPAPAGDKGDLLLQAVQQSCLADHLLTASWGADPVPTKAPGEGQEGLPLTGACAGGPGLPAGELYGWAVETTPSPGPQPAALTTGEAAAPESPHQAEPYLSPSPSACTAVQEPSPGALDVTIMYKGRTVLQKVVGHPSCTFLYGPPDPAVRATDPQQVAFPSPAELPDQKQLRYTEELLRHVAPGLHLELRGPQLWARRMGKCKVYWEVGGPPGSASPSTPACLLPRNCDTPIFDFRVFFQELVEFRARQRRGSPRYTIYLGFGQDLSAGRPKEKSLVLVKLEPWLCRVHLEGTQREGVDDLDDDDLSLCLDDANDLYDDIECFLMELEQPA
Oligonucleotide | log fluorescence [z-score]
TTACGTATCGGTCTCGGTTAGTGCTAG | 1.49
TTAGATATCGGGACAGGATTAGTGCTA | 0.398
CATGAACTGTTTCTTGAAAAGTGCTAG | 0.356
TTAAGACTGCTTCTCCTTTAGTGCTAG | 0.269
CACCACATTTTTTTCATTATGTGCTAG | 0.465
GTAGGACTGGGGTATCGGTTAGTGCTA | -0.0669
GACGAACTTAGTTTCGAGACGTGCTAG | 5.78
TTAGAACTAAGTCTCGATTAGTGCTAG | 1.99
TCATTTTGCACTCTCTAACTGTGCTAG | 1.4
TTAGGTATCAACTATCGGTTAGTGCTA | 0.00674
AAATGTTTTGTTTTTCATTAGTGCTAG | 1.76
CCTATTATATATATCATAAGGTGCTAG | 1.32
TTAGGTATTCTTTTCCTTTAGTGCTAG | 0.862
GACGGTCTCGGTTTCGGAACGTGCTAG | 10.4
GGCGATTTCGGGTTTCGAGACGTGCTA | 3.88
TTCGGTTTCGGTTCCGGTTAGTGCTAG | 13.1
GGCGATATCAGTATCGAGACGTGCTAG | -0.252
GACGATTTCAGTCTCGAAACGTGCTAG | 1.17
GACGATATCAGTAACGAGACGTGCTAG | 0.0641
TTAGGTTTCCTTATCCGTTAGTGCTAG | 2.95
GACGGTATACTTCTCCTGACGTGCTAG | 0.142
GGATGTTGCAAATATTGCTAGGTGCTA | -0.637
TCAAACATCATTTTTCCACTGTGCTAG | 0.24
TTAGGTCTCGGTATCGGTCAGTGCTAG | 2.35
TTAAATCTCAGTTTCGATTAGTGCTAG | 8.85

Block 2
Target: CCNB3, cyclin fold, Cln2 fusion (human)
Technique: yeast growth competition, sequencing
Medium: yeast
Notes: weak parent motif
Relative to: not given
Direction: higher = stronger binding
Starting sequence: GMNC docking peptide (human); KNAKRNLSSEFAN; partner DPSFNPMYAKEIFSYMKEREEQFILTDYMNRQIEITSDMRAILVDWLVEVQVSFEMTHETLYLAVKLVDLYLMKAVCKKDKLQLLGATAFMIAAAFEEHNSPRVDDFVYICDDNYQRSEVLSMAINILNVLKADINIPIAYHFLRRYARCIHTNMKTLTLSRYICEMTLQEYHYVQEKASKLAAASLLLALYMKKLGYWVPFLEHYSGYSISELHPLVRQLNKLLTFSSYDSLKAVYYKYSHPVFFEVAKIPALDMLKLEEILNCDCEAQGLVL
Change | normalised enrichment score
KNAKRNHSSEFAN [L7H] | 0.228
KIAKRNLSSEFAN [N2I] | 0.331
KNAKRNLSHEFAN [S9H] | 0.335
KNAKRNLRSEFAN [S8R] | 0.382
KNAKRNSSSEFAN [L7S] | 0.321
KNAKRNLSSEFKN [A12K] | 0.302
KNAKRNLSSESAN [F11S] | 0.272
KNAKYNLSSEFAN [R5Y] | 0.138
KNAKRNLTSEFAN [S8T] | -0.174
KSAKRNLSSEFAN [N2S] | 0.53
KNAKRNMSSEFAN [L7M] | 0.2
KNTKRNLSSEFAN [A3T] | 0.24
KNAKRNLSSEFFN [A12F] | -0.0934
KNAKRGLSSEFAN [N6G] | 0.365
KNAKRNLSSKFAN [E10K] | -0.3
KNAKRCLSSEFAN [N6C] | 0.326
KNAKRNLSSEFWN [A12W] | 0.295
KNAIRNLSSEFAN [K4I] | 0.0669
KNAKRNLSSEFPN [A12P] | 0.167
KNAKRNLSMEFAN [S9M] | 0.309
KNAKRNLSSEFIN [A12I] | 0.227
KNAKRNLSGEFAN [S9G] | 0.00944
KNADRNLSSEFAN [K4D] | -0.153
KNSKRNLSSEFAN [A3S] | 0.311
KNAKRNLFSEFAN [S8F] | 0.541

Block 3
Target: Prothrombin, mature alpha-thrombin (F2, Homo sapiens, UniProt P00734)
Technique: aptamer microarray, sandwich
Form: DNA with 2'F-ANA
Medium: in vitro
Tested at: 200 nM
Notes: whole 15-mer aptamer, many near background
Together with: Cy3 exosite-II aptamer, 400 nM
Direction: higher = stronger binding
Oligonucleotide: GGTTGGTGTGGTTGG
Modification | mean fluorescence intensity [a.u.]
2'F-ANA at 2 4 5 6 8 12 | 218
2'F-ANA at 1 3 5 6 10 12 13 14 15 | 53
2'F-ANA at 1 3 4 5 7 10 11 14 15 | 54.1
2'F-ANA at 2 3 6 10 11 12 13 | 375
2'F-ANA at 1 2 3 7 11 12 14 15 | 90.8
2'F-ANA at 3 5 8 9 14 15 | 63.5
2'F-ANA at 2 3 6 8 | 812
2'F-ANA at 1 3 4 5 6 8 12 15 | 113
2'F-ANA at 1 3 4 8 9 11 13 | 156
2'F-ANA at 2 3 4 5 6 8 11 14 15 | 51.8
2'F-ANA at 1 2 3 8 9 10 11 13 14 | 238
2'F-ANA at 4 5 6 7 9 11 13 14 15 | 44.4
2'F-ANA at 3 4 5 8 9 10 13 | 49.1
2'F-ANA at 2 3 5 7 9 11 12 13 | 137
2'F-ANA at 1 2 4 7 8 11 14 | 69.9
2'F-ANA at 1 3 6 7 11 14 | 76.7
2'F-ANA at 2 4 6 7 10 12 14 15 | 70.4
2'F-ANA at 1 3 5 8 11 13 14 15 | 67.9
2'F-ANA at 2 3 5 8 9 10 11 12 | 64
2'F-ANA at 3 6 9 10 11 12 | 507
2'F-ANA at 1 2 5 7 8 10 11 14 15 | 61.5
2'F-ANA at 1 3 5 7 9 10 11 13 | 62.9

Block 4
Target: Sal-like protein 4, full length isoform B (SALL4, Homo sapiens, UniProt Q9UJQ4-2, residues 1-616)
Technique: universal PBM
Form: double-stranded DNA, one strand shown
Medium: in vitro
Tested at: not given
Notes: 8-mer, flanks averaged, mean of replicates
Direction: higher = stronger binding
Oligonucleotide | E-score
GTCCGCGA | -0.166
AGTACCGA | -0.116
GCAATTGC | 0.226
CCCGGCCG | -0.291
ACGAGGAG | -0.0393
AAAGTGTT | 0.162
AGCTGAGA | -0.0972
CAGCTGGG | -0.327
GAGTGGTA | -0.0872
GAGGTTGC | -0.233
TCGATTAA | 0.292
TCTCTACA | 0.126
GACCCTAC | -0.192
CATCCTGG | -0.0659
CGTTCGCC | -0.13
CGGATACA | 0.0195
CGCACGTA | -0.0187
CAACGTCG | -0.246
AGAGCGTG | -0.136
CCTTGGGC | -0.321
AATTCTGC | 0.0277
GAGTTACC | -0.211
ACCAAGAA | 0.0511

Block 5
Target: Histone acetyltransferase KAT6A, both winged helices, GST fusion (KAT6A, Homo sapiens, UniProt Q92794, residues 1-181)
Technique: protein binding microarray
Form: double-stranded DNA, one strand shown
Medium: in vitro
Tested at: not given
Notes: 8-mer, flanks averaged, mean of 2 arrays, mostly near background
Relative to: not given
Direction: higher = stronger binding
Residues (chain): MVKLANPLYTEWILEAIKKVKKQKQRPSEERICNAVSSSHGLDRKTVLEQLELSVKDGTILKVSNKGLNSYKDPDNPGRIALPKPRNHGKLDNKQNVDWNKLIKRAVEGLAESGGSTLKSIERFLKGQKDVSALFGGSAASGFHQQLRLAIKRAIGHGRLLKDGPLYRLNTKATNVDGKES
Oligonucleotide | E-score
CCGCAACG | 0.279
CATGAAAC | 0.179
TGTAGGAA | -0.112
CACGCATC | 0.182
GTTGCTAA | -0.0115
ACTCTGGC | -0.128
CTTGGTGC | -0.103
GGCCGTAA | 0.268
CTAGGCAG | -0.189
ATGCCGAG | 0.185
AAGTTCGT | 0.0278
ACAGGGTG | -0.186
ATAAGAAG | -0.0801
CGCAATGA | 0.0258
CCGTTGAG | 0.105
ATCCGTAC | 0.228
ACCCTTGA | 0.0279
TCGGACGA | 0.144
AGTGTGCG | 0.0319
AACATATA | -0.107
GCCACTTA | -0.0601
AGGGAGAT | -0.237
CAAGGTCG | -0.0265
AGCGTACC | 0.21
ACGCCAGT | 0.0255

For quick reference, copied from above (block 1):
Oligonucleotide | log fluorescence [z-score]
GACGAACTTAGTTTCGAGACGTGCTAG | 5.78
TTAGAACTAAGTCTCGATTAGTGCTAG | 1.99
TCATTTTGCACTCTCTAACTGTGCTAG | 1.4
TTAGGTATCAACTATCGGTTAGTGCTA | 0.00674
AAATGTTTTGTTTTTCATTAGTGCTAG | 1.76
CCTATTATATATATCATAAGGTGCTAG | 1.32
TTAGGTATTCTTTTCCTTTAGTGCTAG | 0.862
GACGGTCTCGGTTTCGGAACGTGCTAG | 10.4
